Assay results pooled from the literature.
UniProt P61075, sequence (whole entry, looked up): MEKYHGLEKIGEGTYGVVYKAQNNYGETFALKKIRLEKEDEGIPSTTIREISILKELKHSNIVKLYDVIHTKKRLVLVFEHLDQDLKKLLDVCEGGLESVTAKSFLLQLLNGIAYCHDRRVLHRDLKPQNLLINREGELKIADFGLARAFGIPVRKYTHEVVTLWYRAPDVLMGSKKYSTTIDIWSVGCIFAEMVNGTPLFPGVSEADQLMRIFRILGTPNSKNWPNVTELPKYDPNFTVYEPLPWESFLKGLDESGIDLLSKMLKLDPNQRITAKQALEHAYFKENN
UniProt Q9UL54, sequence (whole entry, looked up): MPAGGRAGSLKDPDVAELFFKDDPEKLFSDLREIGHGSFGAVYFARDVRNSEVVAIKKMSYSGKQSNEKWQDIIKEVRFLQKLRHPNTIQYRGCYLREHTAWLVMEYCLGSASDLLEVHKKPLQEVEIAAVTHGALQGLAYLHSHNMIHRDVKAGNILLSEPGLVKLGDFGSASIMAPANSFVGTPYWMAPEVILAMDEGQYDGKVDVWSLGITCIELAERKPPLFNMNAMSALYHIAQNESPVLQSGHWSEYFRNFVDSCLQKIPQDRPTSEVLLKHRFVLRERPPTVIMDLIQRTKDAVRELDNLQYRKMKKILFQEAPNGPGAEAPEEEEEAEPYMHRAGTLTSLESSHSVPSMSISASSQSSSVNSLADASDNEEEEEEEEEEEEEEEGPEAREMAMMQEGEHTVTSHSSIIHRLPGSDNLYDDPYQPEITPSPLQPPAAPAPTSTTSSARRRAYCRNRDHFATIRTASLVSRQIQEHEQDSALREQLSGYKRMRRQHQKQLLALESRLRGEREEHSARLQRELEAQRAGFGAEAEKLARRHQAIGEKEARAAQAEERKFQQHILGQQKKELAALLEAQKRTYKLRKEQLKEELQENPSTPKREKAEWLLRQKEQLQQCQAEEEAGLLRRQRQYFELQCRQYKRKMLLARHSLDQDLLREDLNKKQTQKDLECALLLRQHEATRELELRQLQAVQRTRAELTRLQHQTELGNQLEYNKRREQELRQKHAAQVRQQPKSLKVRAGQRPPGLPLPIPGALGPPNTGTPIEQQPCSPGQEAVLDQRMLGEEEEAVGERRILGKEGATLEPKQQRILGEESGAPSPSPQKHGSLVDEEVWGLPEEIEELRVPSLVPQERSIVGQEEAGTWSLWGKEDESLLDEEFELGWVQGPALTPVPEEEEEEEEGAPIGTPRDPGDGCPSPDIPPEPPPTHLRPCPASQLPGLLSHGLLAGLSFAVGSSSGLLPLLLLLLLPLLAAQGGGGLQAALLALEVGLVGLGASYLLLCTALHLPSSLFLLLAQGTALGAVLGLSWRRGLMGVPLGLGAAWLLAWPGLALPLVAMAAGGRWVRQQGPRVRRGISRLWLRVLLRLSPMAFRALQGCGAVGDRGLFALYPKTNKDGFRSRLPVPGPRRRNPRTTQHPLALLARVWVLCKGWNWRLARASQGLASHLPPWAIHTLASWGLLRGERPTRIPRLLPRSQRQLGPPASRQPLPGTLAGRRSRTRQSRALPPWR
UniProt Q9UBN7, sequence (whole entry, looked up): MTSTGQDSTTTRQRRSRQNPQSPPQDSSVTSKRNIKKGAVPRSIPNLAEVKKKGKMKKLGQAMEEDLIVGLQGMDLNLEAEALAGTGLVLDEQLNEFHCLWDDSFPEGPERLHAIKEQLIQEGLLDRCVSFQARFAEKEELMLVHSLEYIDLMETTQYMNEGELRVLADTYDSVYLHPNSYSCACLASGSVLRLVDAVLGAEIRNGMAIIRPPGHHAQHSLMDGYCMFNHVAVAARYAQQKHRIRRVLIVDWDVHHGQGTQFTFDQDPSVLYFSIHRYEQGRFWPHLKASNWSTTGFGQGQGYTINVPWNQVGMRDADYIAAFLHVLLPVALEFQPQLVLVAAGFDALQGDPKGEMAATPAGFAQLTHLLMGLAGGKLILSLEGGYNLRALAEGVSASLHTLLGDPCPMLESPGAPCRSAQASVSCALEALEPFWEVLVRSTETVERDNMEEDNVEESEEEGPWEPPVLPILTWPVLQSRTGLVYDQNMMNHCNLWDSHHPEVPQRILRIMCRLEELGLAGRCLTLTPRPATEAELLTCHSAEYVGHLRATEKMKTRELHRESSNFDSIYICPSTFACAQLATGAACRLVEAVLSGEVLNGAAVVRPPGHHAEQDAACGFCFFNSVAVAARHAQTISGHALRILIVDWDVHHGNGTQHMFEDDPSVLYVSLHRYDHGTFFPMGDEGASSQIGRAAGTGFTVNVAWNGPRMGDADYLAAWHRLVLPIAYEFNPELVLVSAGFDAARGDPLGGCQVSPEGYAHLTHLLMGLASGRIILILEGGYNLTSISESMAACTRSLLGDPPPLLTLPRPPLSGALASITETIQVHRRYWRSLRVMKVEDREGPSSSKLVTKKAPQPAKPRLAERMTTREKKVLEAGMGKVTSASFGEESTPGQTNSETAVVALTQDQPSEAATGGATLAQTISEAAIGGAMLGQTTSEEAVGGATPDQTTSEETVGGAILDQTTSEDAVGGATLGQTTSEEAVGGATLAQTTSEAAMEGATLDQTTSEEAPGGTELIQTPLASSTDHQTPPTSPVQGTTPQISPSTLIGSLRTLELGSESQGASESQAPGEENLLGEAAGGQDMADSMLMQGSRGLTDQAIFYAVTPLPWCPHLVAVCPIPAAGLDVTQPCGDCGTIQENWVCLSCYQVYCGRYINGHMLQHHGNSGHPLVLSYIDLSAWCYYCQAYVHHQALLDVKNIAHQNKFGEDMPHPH
UniProt P49841, sequence (whole entry, looked up): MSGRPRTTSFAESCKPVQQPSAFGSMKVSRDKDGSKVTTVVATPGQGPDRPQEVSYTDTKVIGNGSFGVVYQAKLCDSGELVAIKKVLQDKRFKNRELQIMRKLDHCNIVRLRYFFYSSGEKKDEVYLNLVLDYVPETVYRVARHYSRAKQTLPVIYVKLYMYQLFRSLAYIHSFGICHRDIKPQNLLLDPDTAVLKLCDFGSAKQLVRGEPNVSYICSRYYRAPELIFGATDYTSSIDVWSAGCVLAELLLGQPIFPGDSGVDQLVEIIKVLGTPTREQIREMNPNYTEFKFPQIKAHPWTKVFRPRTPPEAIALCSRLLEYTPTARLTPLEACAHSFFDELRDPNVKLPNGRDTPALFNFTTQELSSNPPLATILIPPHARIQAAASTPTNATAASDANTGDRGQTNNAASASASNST
UniProt P35462, sequence (whole entry, looked up): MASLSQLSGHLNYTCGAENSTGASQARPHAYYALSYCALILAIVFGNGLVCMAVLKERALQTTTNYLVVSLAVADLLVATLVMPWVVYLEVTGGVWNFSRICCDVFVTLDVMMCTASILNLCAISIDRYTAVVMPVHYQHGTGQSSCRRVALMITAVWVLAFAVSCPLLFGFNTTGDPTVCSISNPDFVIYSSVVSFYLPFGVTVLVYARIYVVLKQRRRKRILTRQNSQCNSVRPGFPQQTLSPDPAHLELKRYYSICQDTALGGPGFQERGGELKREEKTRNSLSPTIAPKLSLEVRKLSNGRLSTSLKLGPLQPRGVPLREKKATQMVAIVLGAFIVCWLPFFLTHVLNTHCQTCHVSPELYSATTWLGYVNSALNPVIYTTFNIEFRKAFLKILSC
UniProt Q15059, sequence (whole entry, looked up): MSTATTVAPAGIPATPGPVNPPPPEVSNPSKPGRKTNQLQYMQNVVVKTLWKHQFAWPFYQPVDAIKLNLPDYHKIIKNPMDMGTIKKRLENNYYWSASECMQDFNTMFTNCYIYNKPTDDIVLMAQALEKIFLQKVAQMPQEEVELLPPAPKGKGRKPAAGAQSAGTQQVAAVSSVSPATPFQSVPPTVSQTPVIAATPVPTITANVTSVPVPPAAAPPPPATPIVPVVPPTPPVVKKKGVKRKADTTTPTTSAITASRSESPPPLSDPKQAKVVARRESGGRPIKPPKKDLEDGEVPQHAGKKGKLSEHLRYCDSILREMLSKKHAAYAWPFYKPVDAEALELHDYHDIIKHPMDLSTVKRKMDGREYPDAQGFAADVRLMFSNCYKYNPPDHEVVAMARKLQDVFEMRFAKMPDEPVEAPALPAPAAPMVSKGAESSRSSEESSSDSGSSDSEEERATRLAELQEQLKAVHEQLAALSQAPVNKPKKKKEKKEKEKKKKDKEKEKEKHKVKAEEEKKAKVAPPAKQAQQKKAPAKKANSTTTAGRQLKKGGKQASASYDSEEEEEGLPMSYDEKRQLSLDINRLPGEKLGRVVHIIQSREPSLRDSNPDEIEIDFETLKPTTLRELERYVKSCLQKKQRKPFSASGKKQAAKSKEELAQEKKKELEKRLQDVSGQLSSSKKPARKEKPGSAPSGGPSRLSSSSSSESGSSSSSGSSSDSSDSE
UniProt P53778, sequence (whole entry, looked up): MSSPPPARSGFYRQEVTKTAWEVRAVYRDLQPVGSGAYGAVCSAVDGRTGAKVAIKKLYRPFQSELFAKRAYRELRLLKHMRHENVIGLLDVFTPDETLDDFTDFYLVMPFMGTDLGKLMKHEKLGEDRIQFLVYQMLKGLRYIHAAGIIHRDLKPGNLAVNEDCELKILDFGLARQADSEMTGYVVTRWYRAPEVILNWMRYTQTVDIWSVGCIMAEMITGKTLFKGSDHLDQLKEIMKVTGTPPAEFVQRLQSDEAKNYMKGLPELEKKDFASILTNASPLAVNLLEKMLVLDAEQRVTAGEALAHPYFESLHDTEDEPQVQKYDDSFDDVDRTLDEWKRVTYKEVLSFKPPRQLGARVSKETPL
UniProt Q6P2M8, sequence (whole entry, looked up): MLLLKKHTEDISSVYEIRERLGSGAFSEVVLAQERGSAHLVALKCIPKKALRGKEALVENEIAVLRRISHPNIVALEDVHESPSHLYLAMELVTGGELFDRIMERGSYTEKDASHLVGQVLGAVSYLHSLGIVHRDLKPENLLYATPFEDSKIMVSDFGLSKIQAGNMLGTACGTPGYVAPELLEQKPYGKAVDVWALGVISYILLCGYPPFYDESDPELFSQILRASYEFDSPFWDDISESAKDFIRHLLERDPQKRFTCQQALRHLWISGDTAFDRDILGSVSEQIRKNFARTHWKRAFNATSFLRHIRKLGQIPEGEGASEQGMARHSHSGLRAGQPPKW

| SMILES | tested on | assay | conditions | endpoint | result |
| --- | --- | --- | --- | --- | --- |
| C=CC(=O)N1CCC(COCC(=O)N2CCN(c3nc(-c4cnc(N)nc4C(F)F)nc(N4CCOC[C@@H]4C)n3)CC2)CC1 | MAP3K3 (Homo sapiens, UniProt Q99759) | binding, competition with immobilised ligand | 1 µM | remaining binding | 100% |
| C1=C/COCc2cc(ccc2OCCN2CCCC2)Nc2nccc(n2)-c2cccc(c2)COC/1 | PNCK (Homo sapiens, UniProt Q6P2M8) | binding | 0.1 µM | remaining binding | 34% |
| COc1cc(-c2cncc3c2CN(C)Cc2cc(N4CCNCC4)ccc2-3)cc(OC)c1OC | MAP2K2 (Homo sapiens, UniProt P36507) | enzyme activity, inhibitor | 1 µM | remaining activity | 102% |
| CNc1ncc2c(/C=C/C(=O)N3CCC(OC)CC3)nn(Cc3cccc(C(F)(F)F)c3)c2n1 | MAPK12 (Homo sapiens, UniProt P53778) | enzyme activity, inhibitor, radiometric | 1 µM | remaining activity | 95% |
| NS(=O)(=O)c1ccc(Nc2nc(-c3ccc(F)cc3)c3ccccc3n2)cc1 | Bromodomain-containing protein 3, BD2 (BRD3, Homo sapiens, UniProt Q15059) | binding, competition with immobilised ligand | 1 µM | remaining binding | 3% |
| COc1ccc2oc(-c3ccc4nc(N)oc4c3)c/c(=N\c3ccccc3NC(=O)CCN)c2c1 | MATK (Homo sapiens, UniProt P42679) | binding | 1 µM | remaining binding | 136% |
| CCCCC(=O)Nc1ccc(-c2ccc3ncn(CCC)c(=O)c3c2)cn1 | TAOK2 (Homo sapiens, UniProt Q9UL54) | binding, competition with immobilised ligand | 0.5 µM | remaining binding | 100% |
| Cc1ccc(NS(=O)(=O)c2c(C)[nH]c(C)c2C(=O)N2CCC(F)(F)C2)cc1Cl | DRD3 (Homo sapiens, UniProt P35462) | β-arrestin recruitment, antagonist |  | IC50 | 9.9 µM |
| C[C@]1(O)CCCN(c2nc(Nc3ccc(S(=O)(=O)N[C@H]4CC[C@H](CN5CCN(c6ccc(C7CCC(=O)NC7=O)cc6F)CC5)CC4)cc3Cl)ncc2C(F)(F)F)C1 (stereo partly drawn) | CDK2 (Homo sapiens, UniProt P24941) | binding, competition with immobilised ligand | 1 µM | remaining binding | 58% |
| Cc1cc([C@@H](C)Nc2ccccc2C(=O)O)c2nc(N3CCC(F)(F)CC3)c(C#N)c(=O)n2c1 | GSK3B (Homo sapiens, UniProt P49841) | binding, competition with immobilised ligand | 10 µM | remaining binding | 100% |
| Cc1cc(S(=O)(=O)N[C@H]2CC[C@H](CN3CCN(c4ccc(C5CCC(=O)NC5=O)cc4F)CC3)CC2)ccc1Nc1ncc(C(F)(F)F)c(N2CCC[C@](C)(O)C2)n1 (stereo partly drawn) | STK16 (Homo sapiens, UniProt O75716) | binding, competition with immobilised ligand | 1 µM | remaining binding | 59% |
| O=C(NO)c1cccc(OS(=O)(=O)Oc2ccc(C(F)(F)F)cc2)c1 | HDAC6 (Homo sapiens, UniProt Q9UBN7) | enzyme activity, inhibitor, fluorescence |  | Ki | 0.374 µM |
| COc1ccnn2ncc(-c3ccnc(N(C)C)n3)c12 | CRK2 (Plasmodium falciparum, UniProt P61075) | binding | 1 µM | remaining binding | 92% |
| FC(F)(F)Oc1cccc(-c2cnc3ccc(-c4ccncc4)nn23)c1 | STK25 (Homo sapiens, UniProt O00506) | binding, competition with immobilised ligand | 5 µM | remaining binding | 77% |
| CCCN(O)N=Nc1ccc(S(=O)(=O)Nc2nccs2)cc1 |  | ABTS scavenging | 60 µg/mL | inhibition | 38.4% |
